Published values pooled from the literature.
Protocols differ between the studies behind these lines. ± marks the error that the study gave.
GAP50: Glideosome-associated protein 50 (GAP50, Plasmodium falciparum, UniProt Q8I2X3)
Sequence of UniProt Q8I2X3 (whole entry, looked up): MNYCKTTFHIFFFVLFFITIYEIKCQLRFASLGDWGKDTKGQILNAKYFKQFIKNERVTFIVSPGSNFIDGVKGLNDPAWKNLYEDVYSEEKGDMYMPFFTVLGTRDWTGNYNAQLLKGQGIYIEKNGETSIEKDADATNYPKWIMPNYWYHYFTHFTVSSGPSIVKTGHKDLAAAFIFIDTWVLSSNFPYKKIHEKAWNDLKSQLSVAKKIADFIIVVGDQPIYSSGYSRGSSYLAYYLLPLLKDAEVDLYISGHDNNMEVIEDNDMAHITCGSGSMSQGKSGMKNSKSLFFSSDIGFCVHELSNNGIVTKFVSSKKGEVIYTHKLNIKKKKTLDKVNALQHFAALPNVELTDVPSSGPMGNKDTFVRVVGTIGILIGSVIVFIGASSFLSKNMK
Sequence of UniProt Q70EK9 (whole entry, looked up): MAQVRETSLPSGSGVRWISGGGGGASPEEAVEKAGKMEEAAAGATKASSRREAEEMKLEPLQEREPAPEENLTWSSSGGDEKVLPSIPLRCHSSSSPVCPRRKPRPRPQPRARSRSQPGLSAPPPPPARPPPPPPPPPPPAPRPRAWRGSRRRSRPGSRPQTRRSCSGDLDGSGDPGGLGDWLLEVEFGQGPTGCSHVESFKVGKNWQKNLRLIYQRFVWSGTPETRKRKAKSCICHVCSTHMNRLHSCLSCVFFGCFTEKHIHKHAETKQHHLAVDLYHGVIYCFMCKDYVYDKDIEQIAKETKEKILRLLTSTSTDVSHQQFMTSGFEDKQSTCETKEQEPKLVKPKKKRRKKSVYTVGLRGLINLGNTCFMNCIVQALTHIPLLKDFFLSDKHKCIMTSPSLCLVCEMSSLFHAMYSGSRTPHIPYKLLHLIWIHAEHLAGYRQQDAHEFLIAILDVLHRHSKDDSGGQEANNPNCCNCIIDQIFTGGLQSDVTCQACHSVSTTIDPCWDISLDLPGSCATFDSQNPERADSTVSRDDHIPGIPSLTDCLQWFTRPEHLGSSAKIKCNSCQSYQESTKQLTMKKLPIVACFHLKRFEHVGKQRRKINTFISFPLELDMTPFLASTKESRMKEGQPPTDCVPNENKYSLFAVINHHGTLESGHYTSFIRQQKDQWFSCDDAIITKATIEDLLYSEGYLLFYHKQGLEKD
Sequence of UniProt Q16584 (whole entry, looked up): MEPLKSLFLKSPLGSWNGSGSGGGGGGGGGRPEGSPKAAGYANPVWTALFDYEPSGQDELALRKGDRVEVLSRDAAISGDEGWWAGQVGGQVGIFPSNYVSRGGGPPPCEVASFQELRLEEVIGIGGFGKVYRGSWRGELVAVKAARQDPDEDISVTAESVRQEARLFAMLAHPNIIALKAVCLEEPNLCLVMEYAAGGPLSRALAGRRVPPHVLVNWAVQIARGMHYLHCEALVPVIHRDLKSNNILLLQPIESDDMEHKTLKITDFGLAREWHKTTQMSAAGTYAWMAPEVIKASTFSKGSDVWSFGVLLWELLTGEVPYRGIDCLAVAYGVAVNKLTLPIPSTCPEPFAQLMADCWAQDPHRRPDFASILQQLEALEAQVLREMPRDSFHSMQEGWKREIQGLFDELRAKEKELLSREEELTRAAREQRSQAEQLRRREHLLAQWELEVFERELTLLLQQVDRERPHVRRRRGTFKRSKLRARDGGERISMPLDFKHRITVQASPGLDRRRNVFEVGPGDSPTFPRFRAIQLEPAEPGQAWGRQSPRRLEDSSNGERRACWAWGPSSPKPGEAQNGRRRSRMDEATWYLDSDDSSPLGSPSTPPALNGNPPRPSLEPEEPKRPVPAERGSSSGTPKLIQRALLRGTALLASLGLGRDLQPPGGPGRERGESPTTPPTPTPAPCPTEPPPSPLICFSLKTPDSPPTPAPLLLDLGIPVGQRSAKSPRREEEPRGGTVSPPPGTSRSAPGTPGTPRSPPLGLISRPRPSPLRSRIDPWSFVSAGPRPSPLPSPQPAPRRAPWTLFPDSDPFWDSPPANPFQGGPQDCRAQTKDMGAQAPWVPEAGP
Sequence of UniProt P50750 (whole entry, looked up): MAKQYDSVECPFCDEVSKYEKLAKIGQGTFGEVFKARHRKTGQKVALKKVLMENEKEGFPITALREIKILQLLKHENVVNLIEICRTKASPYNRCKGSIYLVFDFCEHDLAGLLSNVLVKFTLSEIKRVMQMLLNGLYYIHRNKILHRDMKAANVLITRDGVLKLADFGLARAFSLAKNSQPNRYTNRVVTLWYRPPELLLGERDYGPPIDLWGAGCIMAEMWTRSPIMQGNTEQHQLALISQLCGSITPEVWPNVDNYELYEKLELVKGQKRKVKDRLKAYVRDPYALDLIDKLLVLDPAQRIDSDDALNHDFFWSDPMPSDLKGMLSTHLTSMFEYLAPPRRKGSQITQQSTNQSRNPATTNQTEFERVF
Sequence of UniProt P48051 (whole entry, looked up): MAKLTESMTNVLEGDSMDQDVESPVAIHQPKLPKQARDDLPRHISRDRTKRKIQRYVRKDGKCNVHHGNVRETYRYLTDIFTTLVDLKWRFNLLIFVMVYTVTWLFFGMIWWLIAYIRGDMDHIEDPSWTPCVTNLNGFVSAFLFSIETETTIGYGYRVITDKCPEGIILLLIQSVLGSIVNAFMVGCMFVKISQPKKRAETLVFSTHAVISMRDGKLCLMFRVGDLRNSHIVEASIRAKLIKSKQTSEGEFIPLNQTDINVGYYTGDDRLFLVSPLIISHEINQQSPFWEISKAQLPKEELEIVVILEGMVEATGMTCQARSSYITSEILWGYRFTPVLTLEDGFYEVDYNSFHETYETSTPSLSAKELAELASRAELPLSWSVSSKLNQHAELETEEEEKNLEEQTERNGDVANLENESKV
Sequence of UniProt P42684 (whole entry, looked up): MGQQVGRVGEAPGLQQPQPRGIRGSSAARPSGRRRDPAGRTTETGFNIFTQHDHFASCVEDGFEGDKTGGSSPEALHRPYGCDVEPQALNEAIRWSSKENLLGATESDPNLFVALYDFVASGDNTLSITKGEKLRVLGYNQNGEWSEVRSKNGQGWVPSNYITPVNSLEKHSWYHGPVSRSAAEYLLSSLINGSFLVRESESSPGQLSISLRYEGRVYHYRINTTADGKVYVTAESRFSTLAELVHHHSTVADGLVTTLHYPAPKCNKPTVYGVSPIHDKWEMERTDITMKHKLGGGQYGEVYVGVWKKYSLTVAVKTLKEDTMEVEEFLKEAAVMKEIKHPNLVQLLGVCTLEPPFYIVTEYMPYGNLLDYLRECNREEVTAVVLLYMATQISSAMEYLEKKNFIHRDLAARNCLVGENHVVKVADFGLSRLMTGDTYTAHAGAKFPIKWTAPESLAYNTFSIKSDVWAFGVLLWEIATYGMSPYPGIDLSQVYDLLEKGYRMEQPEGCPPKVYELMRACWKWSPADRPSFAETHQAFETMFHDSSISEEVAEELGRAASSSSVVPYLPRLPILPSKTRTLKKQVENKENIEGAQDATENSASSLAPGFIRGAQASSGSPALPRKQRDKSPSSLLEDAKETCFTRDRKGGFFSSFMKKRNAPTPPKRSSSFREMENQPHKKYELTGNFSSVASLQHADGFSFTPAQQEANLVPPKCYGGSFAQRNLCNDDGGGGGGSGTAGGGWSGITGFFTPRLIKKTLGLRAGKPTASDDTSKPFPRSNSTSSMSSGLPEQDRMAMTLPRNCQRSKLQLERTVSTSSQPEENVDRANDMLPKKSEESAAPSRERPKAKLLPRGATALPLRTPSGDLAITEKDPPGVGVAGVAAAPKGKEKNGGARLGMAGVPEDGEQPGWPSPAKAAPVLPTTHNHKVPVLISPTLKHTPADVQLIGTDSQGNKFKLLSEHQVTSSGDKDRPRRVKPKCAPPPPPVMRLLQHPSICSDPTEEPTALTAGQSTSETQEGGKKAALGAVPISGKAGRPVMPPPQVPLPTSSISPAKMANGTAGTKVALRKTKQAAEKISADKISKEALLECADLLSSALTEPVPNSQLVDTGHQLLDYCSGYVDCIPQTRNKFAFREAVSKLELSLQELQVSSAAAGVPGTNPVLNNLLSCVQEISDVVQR
Sequence of UniProt P00388 (whole entry, unmodified, looked up): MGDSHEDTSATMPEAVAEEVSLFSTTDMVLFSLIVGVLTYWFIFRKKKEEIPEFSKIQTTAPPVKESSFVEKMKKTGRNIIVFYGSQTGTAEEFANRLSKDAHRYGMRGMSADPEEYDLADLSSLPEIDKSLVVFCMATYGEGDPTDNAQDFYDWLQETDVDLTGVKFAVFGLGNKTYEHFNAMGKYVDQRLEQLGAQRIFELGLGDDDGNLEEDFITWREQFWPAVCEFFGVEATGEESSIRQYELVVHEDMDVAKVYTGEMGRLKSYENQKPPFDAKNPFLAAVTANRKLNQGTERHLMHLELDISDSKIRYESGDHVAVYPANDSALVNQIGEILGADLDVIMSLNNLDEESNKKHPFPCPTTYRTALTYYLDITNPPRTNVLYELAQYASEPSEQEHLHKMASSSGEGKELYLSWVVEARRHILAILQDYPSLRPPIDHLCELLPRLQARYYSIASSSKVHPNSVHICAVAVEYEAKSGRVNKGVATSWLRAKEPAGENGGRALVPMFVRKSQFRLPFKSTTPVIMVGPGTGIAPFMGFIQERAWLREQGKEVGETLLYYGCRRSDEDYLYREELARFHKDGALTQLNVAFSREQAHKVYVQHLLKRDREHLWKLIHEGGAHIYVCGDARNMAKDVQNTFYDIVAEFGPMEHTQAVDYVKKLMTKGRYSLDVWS

| SMILES | target or system | assay | test system | setting | how to read | endpoint | value |
| --- | --- | --- | --- | --- | --- | --- | --- |
| NC(=O)c1ccc[n+]([C@@H]2O[C@H](COP(=O)(O)OP(=O)(O)OC[C@H]3O[C@@H](n4cnc5c(N)ncnc54)[C@H](OP(=O)(O)O)[C@@H]3O)[C@@H](O)[C@H]2O)c1 | NADPH--cytochrome P450 reductase (Rattus norvegicus, UniProt P00388, del2-56/del677-678) | cytochrome c reduction, competitive inhibitor |  | W677X mutant, added: NADPH |  | Ki | 1.39 ± 0.23 µM |
| CCCCCC/C=C\CCCCCCCCCCOC(C)=O | uncharacterized protein (Drosophila suzukii, UniProt A0AB39ZCT4) | binding, bis-ANS competition fluorescence |  | pH 7.4, added: bis-ANS |  | IC50 | > 50 µM |
| NC(=O)c1cnc2ccc(S(=O)(=O)c3ccccc3)cc2c1Nc1ccc(O)cc1 | GAP50 | binding, surface plasmon resonance |  | 1:1 binding model |  | Kd | 23.7 µM |
| CN1CCN(c2ccc(Nc3ncc4cc(C#N)c(=O)n(C5CCCC5)c4n3)cc2)CC1 | Tyrosine-protein kinase ABL2 (ABL2, Homo sapiens, UniProt P42684) |  |  |  |  | IC50 | 0.0634 µM |
| O=C(O)CCc1cnn(-c2ccccc2)c1 | Ubiquitin carboxyl-terminal hydrolase 51, ZnF-UBD domain (USP51, Homo sapiens, UniProt Q70EK9) |  |  |  |  | Kd | > 1000 µM |
| O=C(COc1ccc(C(F)(F)F)cc1C(F)(F)F)Nc1cc(C2CCC2)nn1C1CCC(F)(F)CC1 | Kir3.1/Kir3.2 (Homo sapiens, UniProt P48051+P48549) | activator, thallium flux | HEK293 |  |  | EC50 | 1.3 µM |
| COc1ccc([C@@H]2CC(c3cccs3)=NN2C(=O)c2ccco2)cc1OC | GAP50 | binding, surface plasmon resonance |  | 1:1 binding model |  | Kd | 55.1 µM |
| CC(C)C[C@H](NC(=O)C[C@H](O)[C@H](CC(C)C)NC(=O)[C@H](Cc1c[nH]cn1)NC(=O)CNC(=O)[C@@H](NC(=O)[C@H](C)NC(=O)[C@H](Cc1c[nH]c2ccccc12)NC(=O)[C@H](CCC(N)=O)NC(=O)[C@@H](Cc1ccccc1)NC(=O)COCCOCCNC(=O)CCC(C(=O)O)N1CCN(CC(=O)O)CCN(CC(=O)O)CCN(CC(=O)O)CC1)C(C)C)C(N)=O (stereo partly shown) [lutetium-177 labelled] |  |  | BALB/c nu/nu mice, small intestine | 100 pmol, 1 h, added: PA 300 µg |  | tissue uptake | 0.9 ± 0.3 %ID/g |
| CC[C@@H]1[C@H](F)C(=O)N[C@@H]1COc1nccc2cc(C(N)=O)c(OC)cc12 | Mitogen-activated protein kinase kinase kinase 11 (MAP3K11, Homo sapiens, UniProt Q16584) | ATP probe binding, KiNativ profiling, item: MLK3 Lys1 probe site | THP-1 cell lysate |  |  | IC50 | > 5 µM |
| CC(C)(C)c1cnc(CSc2cnc(NC(=O)C3CCN(C(=O)CCOCCN4Cc5cc6c(cc5C4)C(=O)N(C4CCC(=O)NC4=O)C6=O)CC3)s2)o1 (stereo not shown) | Cyclin-dependent kinase 9 (CDK9, Homo sapiens, UniProt P50750) | degrader, Western blot | TC-71 |  |  | DC50 | 0.0103 ± 0.0052 µM |
| Cn1cc(-c2ccc(-c3cncc(Cl)c3N3CCC4(CCNC4=O)CC3)cc2)cn1 | COLO 205 | gene expression, microarray, item: ARHGEF2 mRNA |  | concentration not given, 2 h | reference: untreated cells | log2 fold change | 2.27 |
| CC(C)[C@H](NC(=O)[C@H](Cc1ccc(O)cc1)NC(=O)[C@H](Cc1ccc(O)cc1)NC(=O)[C@@H]1CCCN1C(=O)[C@H](CCC(=O)O)NC(=O)[C@H](CCC(=O)O)NC(=O)[C@H](Cc1c[nH]c2ccccc12)NC(=O)[C@@H]1CCCN1C(=O)[C@@H](NC(=O)[C@H](CCC(N)=O)NC(=O)c1ccc2c(c1)C(=O)OC21c2ccc(O)cc2Oc2cc(O)ccc21)C(C)C)C(=O)N[C@H](C(=O)N[C@@H](CCCCN)C(=O)N[C@@H](CCCCN)C(=O)N[C@@H](CO)C(=O)N[C@@H](CO)C(=O)NCC(=O)NCC(N)=O)C(C)C |  | item: total compound | human, plasma | intravenous infusion, 40 mg, 1 h |  | plasma concentration | 36.7 ng/mL |
| N#Cc1ccc2c(c1)[C@H]1CCCN(C(=O)c3ccc4[nH]cnc4c3)[C@H]1C2 |  |  | human, male | 80 mg, day 7 |  | DHEA-S level | 5.4 µmol/L |
